Measured values from different studies.
A part holds a random share of what one study measured. Changes are numbered by the printed parent chain.

Block 1
Target: UDP-N-acetylglucosamine--peptide N-acetylglucosaminyltransferase 110 kDa subunit (OGT, Homo sapiens, UniProt O15294)
Observed: binding
Technique: phage display NGS
Molecule type: peptide
Tested at: concentration not given
Baseline: input library
Residues (O15294 1-1046): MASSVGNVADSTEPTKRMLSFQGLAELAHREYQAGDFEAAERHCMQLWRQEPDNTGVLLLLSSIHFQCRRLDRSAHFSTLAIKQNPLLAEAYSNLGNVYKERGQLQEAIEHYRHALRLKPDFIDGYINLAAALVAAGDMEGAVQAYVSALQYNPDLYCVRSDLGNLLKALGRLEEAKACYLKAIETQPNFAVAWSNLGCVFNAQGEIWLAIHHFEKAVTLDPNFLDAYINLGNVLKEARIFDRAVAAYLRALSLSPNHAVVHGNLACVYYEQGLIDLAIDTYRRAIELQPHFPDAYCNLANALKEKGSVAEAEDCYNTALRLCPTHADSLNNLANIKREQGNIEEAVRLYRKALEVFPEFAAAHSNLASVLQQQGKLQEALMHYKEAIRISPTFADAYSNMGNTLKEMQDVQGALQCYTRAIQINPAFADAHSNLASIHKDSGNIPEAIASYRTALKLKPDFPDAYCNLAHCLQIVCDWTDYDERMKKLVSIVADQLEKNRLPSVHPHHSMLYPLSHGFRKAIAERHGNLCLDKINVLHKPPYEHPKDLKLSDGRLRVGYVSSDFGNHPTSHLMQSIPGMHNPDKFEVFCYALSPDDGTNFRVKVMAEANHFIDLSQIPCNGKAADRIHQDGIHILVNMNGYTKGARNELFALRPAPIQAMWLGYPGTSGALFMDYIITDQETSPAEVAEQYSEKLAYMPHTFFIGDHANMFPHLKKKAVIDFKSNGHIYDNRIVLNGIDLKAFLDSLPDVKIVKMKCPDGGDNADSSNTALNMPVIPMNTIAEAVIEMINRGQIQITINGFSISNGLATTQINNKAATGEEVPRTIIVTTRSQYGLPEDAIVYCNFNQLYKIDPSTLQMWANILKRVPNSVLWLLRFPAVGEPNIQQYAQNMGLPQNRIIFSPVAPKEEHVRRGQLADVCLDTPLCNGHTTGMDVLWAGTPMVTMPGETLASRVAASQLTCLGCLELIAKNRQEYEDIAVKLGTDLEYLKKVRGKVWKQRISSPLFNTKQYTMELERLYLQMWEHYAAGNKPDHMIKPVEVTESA
| Sequence | enrichment fold change |
| --- | --- |
| TMYEPMYQIKVIAHG | 19.3 |
| SWQPYQHHIWRMTYP | 4.96 |
| TSATSYLPYYTIYPG | 1.79 |
| SIVYEYKKGQIHNHR | 3.37 |
| HTPMREHQQIHWHKF | 7.96 |
| SMVHGVHTIEHHHYQ | 4.03 |
| EPYIGPHHMHHYEHS | 61.8 |
| HQHKLTPMFKHHGAM | 2.58 |

Block 2
Target: CCNA2, cyclin fold, Cln2 fusion (human)
Technique: yeast growth competition, sequencing
Matrix: yeast
Setting: strong parent motif
Baseline: not given
Direction: higher = stronger binding
Starting sequence: viral docking peptide; YKVKRRLVFGADD
| Change | normalised enrichment score |
| --- | --- |
| V8M | 6.75 |
| K4I | 3.76 |
| V3A | 6.47 |
| V3Y | 5.21 |
| K4D | 2.9 |
| G10I | 5.68 |
| V8W | 6.21 |
| K2L | 6.07 |

Block 3
Target: tungstate, free oxyanion
Technique: microfluidic competitive inhibition
Matrix: in vitro, cell-free expressed
Tested at: not given
Setting: derived from inhibition constants, unchanged parent 2230 nM
Direction: lower = stronger binding
Starting sequence: PafA, mature enzyme, eGFP fusion (Elizabethkingia meningoseptica, UniProt Q9KJX5); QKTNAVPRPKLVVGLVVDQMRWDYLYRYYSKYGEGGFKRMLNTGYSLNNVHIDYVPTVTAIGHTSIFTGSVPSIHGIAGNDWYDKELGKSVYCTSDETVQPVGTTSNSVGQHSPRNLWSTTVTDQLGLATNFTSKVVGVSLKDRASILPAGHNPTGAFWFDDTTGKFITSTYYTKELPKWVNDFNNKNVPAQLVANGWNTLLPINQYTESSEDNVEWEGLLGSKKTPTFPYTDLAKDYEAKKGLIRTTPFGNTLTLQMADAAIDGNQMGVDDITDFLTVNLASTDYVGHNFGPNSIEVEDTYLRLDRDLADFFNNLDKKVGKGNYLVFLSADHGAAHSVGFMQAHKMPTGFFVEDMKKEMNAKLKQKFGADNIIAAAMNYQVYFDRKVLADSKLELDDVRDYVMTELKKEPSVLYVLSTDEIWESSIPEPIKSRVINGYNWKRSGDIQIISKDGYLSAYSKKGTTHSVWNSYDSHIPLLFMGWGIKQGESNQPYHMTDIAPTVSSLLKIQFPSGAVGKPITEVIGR
| Change | oxyanion analog dissociation constant |
| --- | --- |
| L507V | 2.23 µM |
| I431V | 2.33 µM |
| I74G | 633 nM |
| I436V | 2.11 µM |
| P227V | 3.11 µM |
| G14A | 2.83 µM |
| S210V | 2.88 µM |
| V503G | 1.75 µM |

Further values, each from its own experiment
| Compound | cell line | tested at | time | quantity | result |
| --- | --- | --- | --- | --- | --- |
| CC(C)C[C@H](CN)CC(=O)O | HaCaT | 100 µM | 36 h | viability | 85.8% |
